{"data": "Assay results from different studies", "note": "A part holds a random share of what one study measured. Changes are numbered by the printed parent chain."}
{"data": "Block 1", "Substance": "PhoQ, residues 284 288 289 292 302 303 SSCCRF", "method": "Sort-seq", "measured": "YFP reporter", "sample": "E. coli", "setting": "PhoQ-PhoP variant library", "together with": "10 µM Mg2+", "relative to": "high Mg2+ state", "reading": "higher = stronger signaling"}
{"target": "PhoP, residues 12 14 15 18 19 QQAYL (Escherichia coli, UniProt P23836)", "fold induction": 27.9}
{"target": "PhoP, residues 12 14 15 18 19 LFHKL (Escherichia coli, UniProt P23836)", "fold induction": 1.16}
{"target": "PhoP, residues 12 14 15 18 19 GMGLL (Escherichia coli, UniProt P23836)", "fold induction": 2.8}
{"data": "Block 2", "target": "ABI1, truncated, D143A, DHFR fusion (Arabidopsis thaliana)", "method": "DHFR PCA, deep sequencing", "sample": "yeast", "setting": "methotrexate growth selection, single substitutions", "together with": "(+)-ABA 2500 µM", "relative to": "wild-type fitted maximum", "reading": "higher = stronger binding", "starting sequence": "PYL1, truncated, DHFR fusion (Arabidopsis thaliana); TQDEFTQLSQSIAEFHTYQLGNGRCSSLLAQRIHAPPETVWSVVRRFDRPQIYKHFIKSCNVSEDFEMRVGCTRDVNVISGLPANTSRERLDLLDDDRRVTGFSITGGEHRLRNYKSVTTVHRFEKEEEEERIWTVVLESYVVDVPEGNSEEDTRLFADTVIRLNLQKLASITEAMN"}
{"Variant": "T135G", "relative binding score": "51.9%"}
{"Variant": "S11K", "relative binding score": "104%"}
{"Variant": "E129L", "relative binding score": "103%"}
{"Variant": "P36F", "relative binding score": "88.9%"}
{"Variant": "T86E", "relative binding score": "88.7%"}
{"Variant": "E130Q", "relative binding score": "101%"}
{"Variant": "Q2W", "relative binding score": "87.3%"}
{"Variant": "E139Y", "relative binding score": "97.9%"}
{"Variant": "Y53L", "relative binding score": "43.8%"}
{"Variant": "P83N", "relative binding score": "68.3%"}
{"data": "Block 3", "target": "CCNB2, cyclin fold, Cln2 fusion (human)", "method": "yeast growth competition, sequencing", "sample": "yeast", "setting": "weak parent motif", "relative to": "not given", "reading": "higher = stronger binding", "starting sequence": "SAMHD1 docking peptide (human); ASKSRVQLFKDDP"}
{"Variant": "ASKSMVQLFKDDP [R5M]", "normalised enrichment score": -0.537}
{"Variant": "ASKSRVDLFKDDP [Q7D]", "normalised enrichment score": 0.143}
{"Variant": "ASKSWVQLFKDDP [R5W]", "normalised enrichment score": 0.324}
{"Variant": "ASKSCVQLFKDDP [R5C]", "normalised enrichment score": 0.233}
{"Variant": "ASKSRVQLFVDDP [K10V]", "normalised enrichment score": -0.231}
{"Variant": "ASKSRVLLFKDDP [Q7L]", "normalised enrichment score": -0.169}
{"Variant": "ASKCRVQLFKDDP [S4C]", "normalised enrichment score": 0.939}
{"Variant": "ASKSRVQLFKDNP [D12N]", "normalised enrichment score": -0.172}
{"Variant": "ASKSKVQLFKDDP [R5K]", "normalised enrichment score": 0.201}
{"Variant": "ASKSRVQLFKRDP [D11R]", "normalised enrichment score": 0.0788}
{"Variant": "ASKKRVQLFKDDP [S4K]", "normalised enrichment score": 0.207}
{"Variant": "ASKPRVQLFKDDP [S4P]", "normalised enrichment score": -0.227}
{"Variant": "AFKSRVQLFKDDP [S2F]", "normalised enrichment score": 0.625}
{"data": "Block 4", "target": "Protein C-ets-1 (ETS1, Homo sapiens, UniProt P14921, residues 1-441, Y397A, full length assumed)", "method": "protein-binding microarray", "form": "double-stranded DNA, one strand shown", "sample": "in vitro", "tested at": "not given", "setting": "k-mer, scored over probes, only values ≥0.25", "reading": "higher = stronger binding", "Residues (chain)": "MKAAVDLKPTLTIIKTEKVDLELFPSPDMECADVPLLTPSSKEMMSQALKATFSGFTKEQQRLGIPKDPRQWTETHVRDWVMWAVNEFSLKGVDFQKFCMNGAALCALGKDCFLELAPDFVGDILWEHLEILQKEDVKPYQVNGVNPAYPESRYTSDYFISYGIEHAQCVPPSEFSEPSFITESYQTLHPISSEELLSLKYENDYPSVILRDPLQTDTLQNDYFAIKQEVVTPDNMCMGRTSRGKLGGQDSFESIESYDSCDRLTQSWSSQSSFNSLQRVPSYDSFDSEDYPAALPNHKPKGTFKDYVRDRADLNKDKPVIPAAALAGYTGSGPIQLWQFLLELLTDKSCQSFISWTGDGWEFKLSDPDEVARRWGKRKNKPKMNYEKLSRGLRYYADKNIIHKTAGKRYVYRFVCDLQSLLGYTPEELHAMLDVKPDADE"}
{"Strand": "ATTGTCGC", "E-score": 0.275}
{"Strand": "CGACATCC", "E-score": 0.299}
{"Strand": "CGGTAACA", "E-score": 0.26}
{"Strand": "CAGTACAC", "E-score": 0.276}
{"Strand": "CCGTTGTC", "E-score": 0.286}
{"Strand": "CCTCCCCG", "E-score": 0.337}
{"Strand": "TCATGACA", "E-score": 0.332}
{"Strand": "ATGTGTTA", "E-score": 0.253}
{"Strand": "CGTTGCCA", "E-score": 0.284}
{"Strand": "ACGACAAT", "E-score": 0.295}
{"Strand": "AATTGTCG", "E-score": 0.38}
{"Strand": "GGCGACAA", "E-score": 0.251}
{"Strand": "AACGCCAA", "E-score": 0.331}
{"note": "Repeated from above (block 4):"}
{"Strand": "TCATGACA", "E-score": 0.332}
{"Strand": "GGCGACAA", "E-score": 0.251}
